Results collected from several papers.
Compare with care: the assays were run in different laboratories. ± gives the spread as reported.

N=C(N)NCCC[C@@H]1NC(=O)[C@H](CCCCNC(=O)CCOCCOCCOCCOCCNC(=O)CC[C@H](NC(=O)CCOCCOCCOCCOCCNC(=O)CC[C@H](NC(=O)CN2CCN(CC(=O)O)CCN(CC(=O)O)CCN(CC(=O)O)CC2)C(=O)NCCOCCOCCOCCOCCC(=O)N[C@@H](CCC(=O)NCCOCCOCCOCCOCCC(=O)NCCCC[C@@H]2NC(=O)[C@@H](Cc3ccccc3)NC(=O)[C@H](CC(=O)O)NC(=O)CNC(=O)[C@H](CCCNC(=N)N)NC2=O)C(=O)NCCOCCOCCOCCOCCC(=O)NCCCC[C@@H]2NC(=O)[C@@H](Cc3ccccc3)NC(=O)[C@H](CC(=O)O)NC(=O)CNC(=O)[C@H](CCCNC(=N)N)NC2=O)C(=O)NCCOCCOCCOCCOCCC(=O)NCCCC[C@@H]2NC(=O)[C@@H](Cc3ccccc3)NC(=O)[C@H](CC(=O)O)NC(=O)CNC(=O)[C@H](CCCNC(=N)N)NC2=O)NC(=O)[C@@H](Cc2ccccc2)NC(=O)[C@H](CC(=O)O)NC(=O)CNC1=O [indium-111 labelled]
log P (octanol/water): -3.68 ± 0.03

CC(C)C[C@@H]1NC(=O)[C@H](C(C)C)NC(=O)[C@H](CO)NC(=O)CNC(=O)CNC(=O)[C@H](CCCNC(=N)N)NC(=O)[C@@H]2CCCN2C(=O)[C@@H](NC(=O)CC[C@H](NC(=O)c2ccc(N(C)Cc3cnc4nc(N)nc(N)c4n3)cc2)C(=O)O)C(C)(C)SSC[C@@H](C(=O)O)NC(=O)CNC(=O)[C@H]([C@@H](C)O)NC(=O)[C@H](C(C)C)NC1=O
half-life (phosphate buffer; 100 µM, pH 7.0, 70 °C): 24.1 days

CSCC[C@H](NC(=O)[C@H](CC(C)C)NC(=O)[C@H](Cc1c[nH]cn1)NC(=O)CNC(=O)[C@@H](NC(=O)[C@H](C)NC(=O)[C@H](Cc1c[nH]c2ccccc12)NC(=O)[C@H](CCC(N)=O)NC(=O)CCCCCNC(=O)CN1CCN(CC(=O)O)CCN(CC(=O)O)CC1)C(C)C)C(N)=O [gallium-68 labelled]
intact parent compound (radio-HPLC; normal saline; 120 min, 37 °C): 88.4%

C[C@@H](O)[C@H](NC(=O)[C@@H]1CSSC[C@H](NC(=O)[C@@H](Cc2ccccc2)NC(=O)CN2CCCN3CCN(CCCN(CP(=O)(O)O)CC3)CC2)C(=O)N[C@@H](Cc2ccc(O)cc2)C(=O)N[C@H](Cc2c[nH]c3ccccc23)C(=O)N[C@@H](CCCCN)C(=O)N[C@@H]([C@@H](C)O)C(=O)N1)C(=O)O [copper-64 labelled]
tumour-to-tissue ratio (Lewis rat, male, tumour-bearing; 4 h; baseline: tumour over blood): 76 ± 20

CC(C)C[C@H](NC(=O)C[C@H](O)[C@H](CC(C)C)NC(=O)[C@H](Cc1c[nH]cn1)NC(=O)CNC(=O)[C@@H](NC(=O)[C@H](C)NC(=O)[C@H](Cc1c[nH]c2ccccc12)NC(=O)[C@H](CCC(N)=O)NC(=O)[C@@H](Cc1ccccc1)NC(=O)c1ccc(NC(=O)CNC(=O)CCC(C(=O)O)N2CCN(CC(=O)O)CCN(CC(=O)O)CC2)cc1)C(C)C)C(N)=O (stereo partly shown) [fluorine-18 labelled]
intact probe (mouse serum; 1 h, 37 °C): > 90%

CCCC[C@H](NC(=O)CNC(=O)CNC(=O)CNC(=O)c1ccc(NN)nc1)C(=O)N[C@H]1CC(=O)NCCCC[C@@H](C(N)=O)NC(=O)[C@H](Cc2c[nH]c3ccccc23)NC(=O)[C@H](CCCNC(=N)N)NC(=O)[C@@H](Cc2ccccc2)NC(=O)[C@H](Cc2c[nH]cn2)NC1=O [technetium-99m labelled]
uptake (C57 mouse, B16/F1 melanoma, spleen; intravenous, 2 h): 0.16 ± 0.09 %ID/g

CCCC[C@H](NC(=O)CNC(=O)CNC(=O)c1ccc(NN)nc1)C(=O)N[C@H]1CC(=O)NCCCC[C@@H](C(N)=O)NC(=O)[C@H](Cc2c[nH]c3ccccc23)NC(=O)[C@H](CCCNC(=N)N)NC(=O)[C@@H](Cc2ccccc2)NC(=O)[C@H](Cc2c[nH]cn2)NC1=O [technetium-99m labelled]
tissue uptake ratio (C57 mouse, B16/F1 melanoma-bearing; intravenous, 0.5 h; baseline: tumour over liver): 12

CSCC[C@H](NC(=O)[C@H](CC(C)C)NC(=O)[C@H](Cc1c[nH]cn1)NC(=O)CNC(=O)[C@@H](NC(=O)[C@H](C)NC(=O)[C@H](Cc1c[nH]c2ccccc12)NC(=O)[C@H](CCC(N)=O)NC(=O)CCCCCNC(=O)CNC(=O)CNC(=O)CNC(=O)CSC(C)=O)C(C)C)C(N)=O [technetium-99m labelled]
log P (shake-flask; n-octanol/water): -0.39 ± 0.02

N=C(N)NCCC[C@@H]1NC(=O)[C@H](CCCCNC(=O)CC[C@H](NC(=O)CCOCCOCCOCCOCCNC(=O)CN2CCN(CC(=O)O)CCN(CC(=O)O)CCN(CC(=O)O)CC2)C(=O)NCCCC[C@@H]2NC(=O)[C@@H](Cc3ccccc3)NC(=O)[C@H](CC(=O)O)NC(=O)CNC(=O)[C@H](CCCNC(=N)N)NC2=O)NC(=O)[C@@H](Cc2ccccc2)NC(=O)[C@H](CC(=O)O)NC(=O)CNC1=O [indium-111 labelled]
tumour to tissue ratio (athymic nude mice, female, U-87 MG glioma xenograft, tumour and lungs; intravenous, 1 h; baseline: tumour over lungs): 2.6 ± 0.21

CCCC[C@H](NC(=O)CCCCCCCNC(=O)c1ccc(NN)nc1)C(=O)N[C@H]1CC(=O)NCCCC[C@@H](C(N)=O)NC(=O)[C@H](Cc2c[nH]c3ccccc23)NC(=O)[C@H](CCCNC(=N)N)NC(=O)[C@@H](Cc2ccccc2)NC(=O)[C@H](Cc2c[nH]cn2)NC1=O [technetium-99m labelled]
uptake (C57 mouse, B16/F1 melanoma, kidneys; intravenous, 0.5 h): 19.6 ± 7.36 %ID/g

CC1(C)C(/C=C/C=C/C=C2/N(CCCCCC(=O)NCCCC[C@@H]3NC(=O)[C@@H](Cc4ccc(O)cc4)NC(=O)[C@H](CC(=O)O)NC(=O)CNC(=O)[C@H](CCCNC(=N)N)NC3=O)c3ccccc3C2(C)C)=[N+](CCCCn2nnc3c2CCC2C(CC3)C2COC(=O)NCCNC(=O)CN(CCN(CC(=O)O)CC(=O)O)CCN(CC(=O)O)CC(=O)O)c2ccc(S(=O)(=O)[O-])cc21 (stereo partly shown)
log P (shake-flask; 1-octanol/PBS; pH 7.4, 99mTc-labelled tracer): -1.45 ± 0.03

N=C(N)NCCC[C@@H]1NC(=O)[C@H](CCCCNC(=O)CCOCCOCCOCCOCCNC(=O)CN2CCN(CC(=O)O)CCN(CC(=O)O)CCN(CC(=O)O)CC2)NC(=O)[C@@H](Cc2ccccc2)NC(=O)[C@H](CC(=O)O)NC(=O)CNC1=O [indium-111 labelled]
tissue uptake (athymic nude mice, female, U-87 MG glioma xenograft, spleen; intravenous, 3 µCi, 72 h): 0.37 ± 0.05 %ID/g

CCCC[C@@H](NC(=O)[C@H](Cc1c[nH]c2ccccc12)NC(=O)[C@@H](N)CSC1CC(=O)N(CCCCCC(=O)NN=C(CO)[C@]2(O)Cc3c(O)c4c(c(O)c3[C@@H](O[C@H]3C[C@H](N)[C@H](O)[C@H](C)O3)C2)C(=O)c2c(OC)cccc2C4=O)C1=O)C(=O)N[C@@H](CCC(=O)O)C(=O)N[C@@H](C)C(=O)N[C@@H](C)C(=O)N[C@@H](Cc1ccc(O)cc1)C(=O)N[C@@H](CCC(N)=O)C(=O)N[C@H](CCCNC(=N)N)C(=O)N[C@@H](Cc1ccccc1)C(=O)N[C@@H](CC(C)C)C(N)=O (stereo partly shown)
half-life (25% human serum; 100 µM, 37 °C): 0.25 days

A few entries again:
N=C(N)NCCC[C@@H]1NC(=O)[C@H](CCCCNC(=O)CCOCCOCCOCCOCCNC(=O)CC[C@H](NC(=O)CCOCCOCCOCCOCCNC(=O)CC[C@H](NC(=O)CN2CCN(CC(=O)O)CCN(CC(=O)O)CCN(CC(=O)O)CC2)C(=O)NCCOCCOCCOCCOCCC(=O)N[C@@H](CCC(=O)NCCOCCOCCOCCOCCC(=O)NCCCC[C@@H]2NC(=O)[C@@H](Cc3ccccc3)NC(=O)[C@H](CC(=O)O)NC(=O)CNC(=O)[C@H](CCCNC(=N)N)NC2=O)C(=O)NCCOCCOCCOCCOCCC(=O)NCCCC[C@@H]2NC(=O)[C@@H](Cc3ccccc3)NC(=O)[C@H](CC(=O)O)NC(=O)CNC(=O)[C@H](CCCNC(=N)N)NC2=O)C(=O)NCCOCCOCCOCCOCCC(=O)NCCCC[C@@H]2NC(=O)[C@@H](Cc3ccccc3)NC(=O)[C@H](CC(=O)O)NC(=O)CNC(=O)[C@H](CCCNC(=N)N)NC2=O)NC(=O)[C@@H](Cc2ccccc2)NC(=O)[C@H](CC(=O)O)NC(=O)CNC1=O [indium-111 labelled]
log P (octanol/water): -3.68 ± 0.03

CC1(C)C(/C=C/C=C/C=C2/N(CCCCCC(=O)NCCCC[C@@H]3NC(=O)[C@@H](Cc4ccc(O)cc4)NC(=O)[C@H](CC(=O)O)NC(=O)CNC(=O)[C@H](CCCNC(=N)N)NC3=O)c3ccccc3C2(C)C)=[N+](CCCCn2nnc3c2CCC2C(CC3)C2COC(=O)NCCNC(=O)CN(CCN(CC(=O)O)CC(=O)O)CCN(CC(=O)O)CC(=O)O)c2ccc(S(=O)(=O)[O-])cc21 (stereo partly shown)
log P (shake-flask; 1-octanol/PBS; pH 7.4, 99mTc-labelled tracer): -1.45 ± 0.03
